Measurements collected from several papers.
Each line is one published result; not all experiments were run side by side. Several values in a cell are separate wells, animals, samples, runs or records. ± gives the spread as reported. ≈ marks a conversion by molar mass, not a printed value.

Protein sequences, listed by entry. Tags and fused reporters are not part of them.
UniProt P08912, whole entry: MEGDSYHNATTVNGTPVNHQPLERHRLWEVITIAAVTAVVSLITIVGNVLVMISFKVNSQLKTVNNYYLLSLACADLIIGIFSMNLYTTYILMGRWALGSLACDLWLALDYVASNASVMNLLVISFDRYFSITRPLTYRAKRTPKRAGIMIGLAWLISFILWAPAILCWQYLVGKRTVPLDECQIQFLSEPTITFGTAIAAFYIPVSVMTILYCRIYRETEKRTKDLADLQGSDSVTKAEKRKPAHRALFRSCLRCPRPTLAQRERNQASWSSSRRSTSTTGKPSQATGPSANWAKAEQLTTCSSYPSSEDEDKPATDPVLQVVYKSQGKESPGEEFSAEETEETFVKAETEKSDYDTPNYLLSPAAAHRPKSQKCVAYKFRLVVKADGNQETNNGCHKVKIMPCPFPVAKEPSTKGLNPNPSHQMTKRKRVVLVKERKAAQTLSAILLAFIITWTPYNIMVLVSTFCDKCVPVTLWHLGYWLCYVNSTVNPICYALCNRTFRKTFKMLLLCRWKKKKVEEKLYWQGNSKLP

CN1CC[C@]23c4c5ccc(O)c4O[C@H]2c2ncc(-c4ccc(Cl)cc4)cc2C[C@@]3(OCCCc2ccccc2)[C@H]1C5
A50 (antinociception; CD-1 mouse, HIV neuropathy; sc, day 1): 2.3 mg/kg

CC(=O)c1cccc(C(C)(C)NC(=O)Nc2ccc(Cl)c(-c3nc(C(F)(F)F)cs3)c2)c1
MIC (Staphylococcus aureus; Smith, RPMI medium; together with: no guanosine): > 30 µM

CO[C@H]1[C@H](O[C@H]([C@H]2O[C@@H](n3ccc(=O)[nH]c3=O)[C@H](O)[C@@H]2O)[C@H](NCCCNC(=O)[C@@H](NC(=O)[C@@H](NC(=O)N[C@H](C(=O)O)C(C)C)[C@@H]2CCNC(=N)N2)[C@@H](OC(=O)CCCCCCCCCCCCN(O)C(=N)N)C(C)C)C(N)=O)O[C@H](CN)[C@H]1O
MIC90 (Mycolicibacterium smegmatis; alamar blue; ATCC 607; nutrient-deficient medium): 0.04 ± 0.005 µg/mL (≈ 0.0329 µM)

NCc1ccc(-c2ncc(OCC3CCNCC3)nc2-c2ccc(-c3ccoc3)cc2)cc1
infectious virus reduction (Zika virus; U87, FLR; 2.5 µM, 48 h): 99%

COc1ccc(S(=O)(=O)N(CC(C)C)C[C@@H](O)[C@H](Cc2ccccc2)NC(=O)O[C@H]2CO[C@H]3OC[C@@H](OC)[C@H]32)cc1
IC50 (HIV-1 LAI; viral cytopathic effect, MTT; MT2): 55 nM

C=C(C)c1cccc(C(C)(C)NC(=O)Nc2ccc(Cl)c(N)c2)c1
MIC (Staphylococcus aureus; Smith, RPMI medium; together with: 1 mM guanosine): > 32 µM

C[C@H](CS)C(=O)N[C@H](Cc1c[nH]c2ccccc12)C(=O)O
MIC of meropenem (Enterobacter aerogenes; IMP-1 producing; 10 µM, together with: meropenem): 16 µg/mL

CC(C)(NC(=O)Nc1ccc(Cl)cc1)c1cccc(C(=N)NO)c1
MIC ratio (Staphylococcus aureus; Smith, RPMI; relative to: with over without guanosine): 7

COc1ccc(CN[C@@H]2CO[C@H](C(c3ccccc3)c3ccccc3)C[C@H]2O)cc1
inhibition (Muscarinic acetylcholine receptor M5 (CHRM5, Homo sapiens, UniProt P08912); radioligand binding; 10 µM, together with: [3H]QNB): 16%

C/C(=C\C=C\[C@@H](C)[C@H]1CC[C@@]2(C)[C@@H]3CC[C@H]4C(C)(C)[C@@H](O[C@@H]5O[C@H](CO)[C@@H](O[C@@H]6O[C@H](CO)[C@@H](O)[C@H](O)[C@H]6O)[C@H](O)[C@H]5O[C@@H]5O[C@H](CO)[C@@H](O)[C@H](O)[C@H]5O[C@@H]5O[C@@H](C)[C@H](O)[C@@H](O)[C@H]5O)CC[C@@]45C[C@@]35CC[C@]12C)C(=O)N[C@@H]1C(=O)O[C@H](C)[C@@H]1C (single isomer, unassigned)
IC50 (Trypanosoma brucei brucei; Alamar Blue; trypomastigote): 2570 nM

CC(C)C[C@@H](NC(=O)[C@H](NC(=O)[C@H]1CCCN1)[C@H](C)O)C(=O)N[C@H](Cc1c[nH]cn1)C(=O)N[C@@H](C(=O)N[C@H](Cc1c[nH]cn1)C(=O)N[C@H](CC(N)=O)C(=O)N[C@H](CCCNC(=N)N)C(=O)N[C@H](CCCNC(=N)N)C(=O)N[C@H](CCCNC(=N)N)C(=O)N[C@H](CCCNC(=N)N)C(=O)N[C@H](CCCNC(=N)N)C(N)=O)[C@H](C)O
AUC(0-24h) (healthy human, plasma; oral, 2 320 mg daily, day 1, mean): 76.2 ng·h/mL

CC(C)(c1ccc(OC[C@H](O)CO)cc1)c1ccc(OC[C@H](O)CCl)c(I)c1 (single isomer, unassigned)
IC50 (LNCaP-95; cell proliferation, BrdU incorporation; 2 d): 6890 ± 2850 nM

CN1CC[C@H](c2c(O)cc(O)c3c(=O)cc(-c4ccc(Br)cc4)oc23)[C@H](O)C1
EC50 (HIV-1; viral replication; HeLa-CD4-LTR/β-gal, LAI): 44.9 nM

CO[C@H]1[C@H](O[C@H]([C@H]2O[C@@H](n3ccc(=O)[nH]c3=O)[C@H](O)[C@@H]2O)[C@H](NCCCNC(=O)[C@@H](NC(=O)[C@@H](NC(=O)N[C@H](C(=O)O)C(C)C)[C@@H]2CCNC(=N)N2)[C@@H](OC(=O)CCCCCCCCCCCCNC(=N)N)C(C)C)C(N)=O)O[C@H](CN)[C@H]1O
MIC50 (Cryptococcus gattii; alamar blue; C17): > 35 µg/mL

COc1ccc2c(=O)c3ccc(Oc4ccc(OC(F)(F)F)cc4)cc3[nH]c2c1
EC50 (Toxoplasma gondii; parasite growth, beta-galactosidase reporter; HFF, RH; 3 days): 0.379 nM

CN(C)c1cc(CN2CCOCC2)nc2nc(NCc3ccc(C(C)(C)C)cc3)nn12
growth inhibition (Candida parapsilosis; concentration not given, without pantothenic acid): ≤ 50%

CC(=NO)c1cccc(C(C)(C)NC(=O)Nc2ccc(Cl)c(-c3nc(C(F)(F)F)cs3)c2)c1
MIC (Staphylococcus aureus; Smith, RPMI medium; together with: 1 mM guanosine): > 64 µM

CN1CC[C@H](c2c(O)cc(O)c3c(=O)cc(-c4ccccc4F)oc23)[C@H](O)C1
EC50 (HIV-1; viral replication; HeLa-CD4-LTR/β-gal, LAI): 7.5 nM and < 10 nM

NC[C@@H](NC[C@@H]1CCCN1C[C@@H](CO)NC[C@@H](NCCc1ccc(-c2ccccc2)cc1)c1ccccc1)c1ccccc1
IC50 (Klebsiella pneumoniae; bacterial growth; compound alone): > 24000 nM

CN1CC[C@H](c2c(O)cc(O)c3c(=O)cc(-c4ccc(C(C)(C)C)cc4)oc23)[C@H](O)C1
EC50 (HIV-1; viral replication; HeLa-CD4-LTR/β-gal, LAI): 152 nM

O=S(=O)(Nc1ccc2c(c1)B(O)OC2)c1ccccc1
MIC (Staphylococcus aureus; broth microdilution; MRSA ATCC BAA-1762): 6.25 µg/mL

NC[C@@H](NC[C@@H]1CCCN1C[C@@H](CO)NC[C@@H](NCCc1ccc(Cl)c(Cl)c1)c1ccccc1)c1ccccc1
potentiation of amikacin (Escherichia coli; bacterial growth; 8 µM, fold shift of IC50, together with: amikacin): 0.6 fold

CC(C)CN(C[C@@H](O)[C@H](Cc1ccccc1)NC(=O)O[C@H]1CO[C@H]2OCC[C@H]21)S(=O)(=O)c1ccc(NC(=O)CCl)cc1
IC50 (HIV-1; viral replication; MT-2 cells, LAI): > 1000 nM

Excerpt of the above:
C=C(C)c1cccc(C(C)(C)NC(=O)Nc2ccc(Cl)c(N)c2)c1
MIC (Staphylococcus aureus; Smith, RPMI medium; together with: 1 mM guanosine): > 32 µM

CN(C)c1cc(CN2CCOCC2)nc2nc(NCc3ccc(C(C)(C)C)cc3)nn12
growth inhibition (Candida parapsilosis; concentration not given, without pantothenic acid): ≤ 50%

CN1CC[C@H](c2c(O)cc(O)c3c(=O)cc(-c4ccc(C(C)(C)C)cc4)oc23)[C@H](O)C1
EC50 (HIV-1; viral replication; HeLa-CD4-LTR/β-gal, LAI): 152 nM
